Results from different studies.
Every numbered part comes from another study and shows a few of its results, in no order. Values joined by “and” are separate records of one study, mostly repeats; a detail may differ.
UniProt O75582, sequence (whole entry, looked up): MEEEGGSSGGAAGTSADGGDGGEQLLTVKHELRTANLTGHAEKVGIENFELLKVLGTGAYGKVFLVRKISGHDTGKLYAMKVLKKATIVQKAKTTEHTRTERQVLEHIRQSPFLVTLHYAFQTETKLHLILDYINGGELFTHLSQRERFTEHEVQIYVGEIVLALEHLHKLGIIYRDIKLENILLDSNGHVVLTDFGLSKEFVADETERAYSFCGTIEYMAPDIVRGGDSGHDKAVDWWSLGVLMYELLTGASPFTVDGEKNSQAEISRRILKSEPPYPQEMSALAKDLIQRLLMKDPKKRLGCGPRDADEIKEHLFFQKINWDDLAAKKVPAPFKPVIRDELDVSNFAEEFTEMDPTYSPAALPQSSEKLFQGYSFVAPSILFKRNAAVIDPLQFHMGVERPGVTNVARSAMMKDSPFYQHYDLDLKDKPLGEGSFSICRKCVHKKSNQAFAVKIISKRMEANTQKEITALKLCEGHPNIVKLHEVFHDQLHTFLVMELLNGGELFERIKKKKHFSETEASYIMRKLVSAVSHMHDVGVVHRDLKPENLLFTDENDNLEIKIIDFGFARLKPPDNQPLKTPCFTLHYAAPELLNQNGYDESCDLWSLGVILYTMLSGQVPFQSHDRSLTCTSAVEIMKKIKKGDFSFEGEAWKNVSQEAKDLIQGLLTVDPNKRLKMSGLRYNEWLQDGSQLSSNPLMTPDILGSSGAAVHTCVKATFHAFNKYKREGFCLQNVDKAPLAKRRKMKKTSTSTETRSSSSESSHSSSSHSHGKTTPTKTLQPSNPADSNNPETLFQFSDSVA
UniProt Q13163, sequence (whole entry, looked up): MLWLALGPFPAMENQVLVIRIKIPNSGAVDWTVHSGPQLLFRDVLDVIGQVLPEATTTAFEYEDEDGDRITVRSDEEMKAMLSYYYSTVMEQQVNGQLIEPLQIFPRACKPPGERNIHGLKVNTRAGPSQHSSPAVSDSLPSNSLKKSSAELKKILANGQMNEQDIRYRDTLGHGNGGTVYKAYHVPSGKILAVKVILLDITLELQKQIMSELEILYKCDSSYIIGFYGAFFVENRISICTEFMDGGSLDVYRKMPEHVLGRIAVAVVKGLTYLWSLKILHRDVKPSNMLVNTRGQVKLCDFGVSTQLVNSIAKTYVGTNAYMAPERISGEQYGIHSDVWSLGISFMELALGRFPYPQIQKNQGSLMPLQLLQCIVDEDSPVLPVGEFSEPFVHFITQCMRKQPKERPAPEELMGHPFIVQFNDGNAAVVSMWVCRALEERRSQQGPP
UniProt P48736, sequence (whole entry, looked up): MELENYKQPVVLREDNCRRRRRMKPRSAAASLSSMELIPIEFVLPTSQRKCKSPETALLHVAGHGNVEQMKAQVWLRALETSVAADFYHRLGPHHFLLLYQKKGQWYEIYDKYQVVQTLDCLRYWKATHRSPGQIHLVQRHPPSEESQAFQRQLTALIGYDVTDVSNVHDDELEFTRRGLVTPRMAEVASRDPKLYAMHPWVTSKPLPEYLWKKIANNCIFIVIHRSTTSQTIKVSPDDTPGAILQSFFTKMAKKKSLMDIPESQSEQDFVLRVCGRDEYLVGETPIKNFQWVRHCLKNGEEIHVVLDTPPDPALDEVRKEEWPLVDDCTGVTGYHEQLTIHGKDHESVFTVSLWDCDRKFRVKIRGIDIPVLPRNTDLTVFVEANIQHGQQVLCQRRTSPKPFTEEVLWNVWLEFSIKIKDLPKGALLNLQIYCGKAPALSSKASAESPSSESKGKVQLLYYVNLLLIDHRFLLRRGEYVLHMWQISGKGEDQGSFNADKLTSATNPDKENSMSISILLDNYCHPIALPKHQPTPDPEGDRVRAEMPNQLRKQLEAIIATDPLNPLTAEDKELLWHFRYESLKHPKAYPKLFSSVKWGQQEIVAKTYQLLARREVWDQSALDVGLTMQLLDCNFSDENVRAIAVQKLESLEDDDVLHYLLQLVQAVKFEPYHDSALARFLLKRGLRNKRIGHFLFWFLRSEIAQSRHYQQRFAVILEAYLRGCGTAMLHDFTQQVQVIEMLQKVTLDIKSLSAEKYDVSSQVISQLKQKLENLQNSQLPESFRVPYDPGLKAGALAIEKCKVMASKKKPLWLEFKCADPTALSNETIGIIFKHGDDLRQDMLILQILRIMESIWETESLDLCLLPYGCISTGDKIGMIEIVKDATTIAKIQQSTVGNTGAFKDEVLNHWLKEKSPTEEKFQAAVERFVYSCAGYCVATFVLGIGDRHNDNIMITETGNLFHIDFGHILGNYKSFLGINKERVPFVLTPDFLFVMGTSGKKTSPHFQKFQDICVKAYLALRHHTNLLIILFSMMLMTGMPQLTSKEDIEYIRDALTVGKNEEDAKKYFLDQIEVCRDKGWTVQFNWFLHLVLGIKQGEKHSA
UniProt P15735, sequence (whole entry, looked up): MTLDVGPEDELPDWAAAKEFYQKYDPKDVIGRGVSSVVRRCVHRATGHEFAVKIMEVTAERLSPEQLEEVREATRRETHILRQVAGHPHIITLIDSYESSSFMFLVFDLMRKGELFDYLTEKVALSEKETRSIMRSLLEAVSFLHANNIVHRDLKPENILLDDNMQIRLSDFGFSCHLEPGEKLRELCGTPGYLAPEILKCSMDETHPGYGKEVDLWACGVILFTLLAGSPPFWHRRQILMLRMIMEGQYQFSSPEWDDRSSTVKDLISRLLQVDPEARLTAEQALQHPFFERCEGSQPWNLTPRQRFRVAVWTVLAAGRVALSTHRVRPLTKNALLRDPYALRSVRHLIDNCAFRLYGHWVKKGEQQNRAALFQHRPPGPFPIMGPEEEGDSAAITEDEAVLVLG
UniProt P06241, sequence (whole entry, looked up): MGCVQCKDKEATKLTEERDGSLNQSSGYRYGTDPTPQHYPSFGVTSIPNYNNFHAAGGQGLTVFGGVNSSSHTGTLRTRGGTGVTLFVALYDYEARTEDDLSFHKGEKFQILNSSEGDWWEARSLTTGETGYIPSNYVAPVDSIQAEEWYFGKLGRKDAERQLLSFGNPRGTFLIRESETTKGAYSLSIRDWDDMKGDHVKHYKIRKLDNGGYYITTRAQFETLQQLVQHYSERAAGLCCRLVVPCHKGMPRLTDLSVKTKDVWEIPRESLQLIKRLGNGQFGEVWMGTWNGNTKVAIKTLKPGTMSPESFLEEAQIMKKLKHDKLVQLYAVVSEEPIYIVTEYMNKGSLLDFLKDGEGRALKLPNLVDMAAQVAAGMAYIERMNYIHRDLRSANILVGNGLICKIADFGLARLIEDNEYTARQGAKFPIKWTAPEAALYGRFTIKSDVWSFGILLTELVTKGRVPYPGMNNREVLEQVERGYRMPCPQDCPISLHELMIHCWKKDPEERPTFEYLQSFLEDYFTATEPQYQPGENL

Block 1
SMILES: CN(C)c1ncnc(-c2ccc3nc(Nc4cc(CN5CCN(C(=O)CC(F)(F)F)CC5)ccn4)[nH]c3c2)c1Cl
Observed: cell-free assay
Method: competition with immobilised ligand
Tested at: 1 µM
Measurement: remaining binding
target = Tyrosine-protein kinase Fyn (FYN, Homo sapiens, UniProt P06241); result = 68%
target = Ribosomal protein S6 kinase alpha-5, N-terminal kinase domain (RPS6KA5, Homo sapiens, UniProt O75582); result = 100%
target = G protein-coupled receptor kinase 3 (GRK3, Homo sapiens, UniProt P35626); result = 78%
target = Phosphatidylinositol 4,5-bisphosphate 3-kinase catalytic subunit gamma isoform (PIK3CG, Homo sapiens, UniProt P48736); result = 100%
target = Dual specificity mitogen-activated protein kinase kinase 5 (MAP2K5, Homo sapiens, UniProt Q13163); result = 1.8%
target = Ephrin type-A receptor 3 (EPHA3, Homo sapiens, UniProt P29320); result = 63%
target = Mitogen-activated protein kinase kinase kinase 10 (MAP3K10, Homo sapiens, UniProt Q02779); result = 100%
target = Serine/threonine-protein kinase Nek9 (NEK9, Homo sapiens, UniProt Q8TD19); result = 100%
target = Phosphorylase b kinase gamma catalytic chain, liver/testis isoform (PHKG2, Homo sapiens, UniProt P15735); result = 100%

Block 2
Target: Insulin receptor-related protein (INSRR, Homo sapiens, UniProt P14616)
UniProt P14616, sequence (whole entry, looked up): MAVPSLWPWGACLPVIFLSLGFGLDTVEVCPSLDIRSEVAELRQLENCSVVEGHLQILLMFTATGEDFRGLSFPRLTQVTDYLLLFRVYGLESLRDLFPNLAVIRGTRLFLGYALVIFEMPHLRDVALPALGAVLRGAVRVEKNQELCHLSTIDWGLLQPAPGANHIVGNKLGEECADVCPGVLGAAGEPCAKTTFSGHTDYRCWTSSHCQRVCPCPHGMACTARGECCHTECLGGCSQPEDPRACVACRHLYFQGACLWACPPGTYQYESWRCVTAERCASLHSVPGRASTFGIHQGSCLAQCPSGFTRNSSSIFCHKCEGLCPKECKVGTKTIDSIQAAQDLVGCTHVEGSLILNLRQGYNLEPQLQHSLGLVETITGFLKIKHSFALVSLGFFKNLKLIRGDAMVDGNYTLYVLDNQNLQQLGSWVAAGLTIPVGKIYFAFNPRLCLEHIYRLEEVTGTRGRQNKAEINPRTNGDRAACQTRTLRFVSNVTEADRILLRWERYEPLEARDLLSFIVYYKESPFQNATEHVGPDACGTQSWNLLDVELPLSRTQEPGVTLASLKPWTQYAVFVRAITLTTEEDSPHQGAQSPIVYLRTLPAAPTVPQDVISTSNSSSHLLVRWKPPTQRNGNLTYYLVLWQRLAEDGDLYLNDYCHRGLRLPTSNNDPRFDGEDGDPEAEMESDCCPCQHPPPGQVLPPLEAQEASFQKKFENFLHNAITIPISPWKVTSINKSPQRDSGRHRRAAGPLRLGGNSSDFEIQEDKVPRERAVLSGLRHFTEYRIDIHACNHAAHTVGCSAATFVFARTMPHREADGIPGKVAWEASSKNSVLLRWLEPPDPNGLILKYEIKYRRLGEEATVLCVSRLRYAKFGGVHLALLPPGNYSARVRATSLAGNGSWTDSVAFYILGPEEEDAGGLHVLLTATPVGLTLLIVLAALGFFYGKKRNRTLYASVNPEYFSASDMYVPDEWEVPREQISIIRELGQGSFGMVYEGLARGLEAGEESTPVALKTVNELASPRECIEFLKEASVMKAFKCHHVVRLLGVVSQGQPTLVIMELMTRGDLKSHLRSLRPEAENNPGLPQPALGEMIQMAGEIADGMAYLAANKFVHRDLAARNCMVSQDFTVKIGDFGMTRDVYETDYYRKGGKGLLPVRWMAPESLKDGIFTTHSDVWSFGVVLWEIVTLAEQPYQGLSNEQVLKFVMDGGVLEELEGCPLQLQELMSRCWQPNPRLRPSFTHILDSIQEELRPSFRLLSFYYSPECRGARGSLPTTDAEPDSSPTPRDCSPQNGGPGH
Observed: enzyme activity
Mode: inhibitor
Tested at: 0.5 µM
Relative to: control
Measurement: remaining activity
Structure (SMILES) = Cc1cccc(-c2[nH]c(C(C)(C)C)nc2-c2ccc3c(c2)OCO3)n1; result = 95.1%
Structure (SMILES) = Cc1ccc(Nc2nccc(N(C)c3ccc4c(C)n(C)nc4c3)n2)cc1S(N)(=O)=O; result = 96.1%
Structure (SMILES) = COc1cc2nccc(Oc3ccc(NC(=S)NC(=O)c4ccccc4C)cc3)c2cc1OC; result = 98.2%
Structure (SMILES) = Cc1ccc(NC(=O)c2ccc(CN3CCN(C)CC3)cc2)cc1Nc1nc(-c2cccnc2)cs1; result = 102%
Structure (SMILES) = COc1cc2ncnc(Nc3ccc(Oc4ccccc4)cc3)c2cc1OC; result = 102%
Structure (SMILES) = Nc1[nH]nc2nc3ccccc3nc12; result = 89.3%
Structure (SMILES) = O=C(Nc1cccc(Nc2cc(Nc3cccc(C(F)(F)F)c3)ncn2)c1)C1CC1; result = 101%
Structure (SMILES) = CNC(=O)c1cc(Oc2ccc(NC(=O)Nc3ccc(Cl)c(C(F)(F)F)c3)cc2)ccn1; result = 104%
Structure (SMILES) = O=C1NC(=O)C(c2cn(CCCO)c3ncccc23)=C1c1cnccn1; result = 93.2%
Structure (SMILES) = Cn1c2ccccc2c2c3c(c4c5ccccc5n(CCC#N)c4c21)CNC3=O; result = 82.5%
Structure (SMILES) = CO[C@H]1C[C@@H]2CC[C@@H](C)[C@@](O)(O2)C(=O)C(=O)N2CCCC[C@H]2C(=O)O[C@H]([C@H](C)C[C@@H]2CC[C@@H](O)[C@H](OC)C2)CC(=O)[C@H](C)/C=C(\C)[C@@H](O)[C@@H](OC)C(=O)[C@H](C)C[C@H](C)/C=C/C=C/C=C/1C; result = 102%
Structure (SMILES) = COc1ccc(C(=O)Nc2sc3c(c2C(N)=O)CCCC3)cc1OC; result = 99.7%
Structure (SMILES) = O=C(CCCc1ccc(-c2ccccc2F)cc1)Nc1ccc(O)cc1; result = 92.7%
Structure (SMILES) = N#CC(C#N)=C(N)/C(C#N)=C/c1ccc(O)cc1; result = 99.9%
Structure (SMILES) = O=S(=O)(c1cccc2cnccc12)N1CCCNCC1; result = 99.7%
Structure (SMILES) = Nc1ncnc2n[nH]c(Nc3ccc(F)cc3)c12; result = 96.9%
Structure (SMILES) = Oc1ccc(-c2nc(-c3ccncc3)c(-c3ccc(F)cc3)[nH]2)cc1; result = 98%
Structure (SMILES) = CN(C)c1ccc(C=C2C(=O)Nc3ccccc32)cc1; result = 94.5%
Structure (SMILES) = Nc1ccc2ncnc(NCCc3ccc(Oc4ccccc4)cc3)c2c1; result = 98.7%
Structure (SMILES) = COc1cc2ncnc(Nc3ccc(F)c(Cl)c3)c2cc1OCCCN1CCOCC1; result = 112%

Block 3
Organism: Sarcocystis neurona
Observed: parasite growth
Tested at: 10 µM
Time: 96 h
Setting: secondary screen
Measurement: inhibition
SMILES = C[C@]12C=CC(=O)C=C1CC[C@@H]1[C@@H]2C(=O)C[C@@]2(C)[C@H]1CC[C@]2(O)C(=O)CO; result = -17.6%
SMILES = CC[C@H](C)C(=O)O[C@H]1C[C@H](O)C=C2C=C[C@H](C)[C@H](CC[C@@H](O)C[C@@H](O)CC(=O)O)[C@H]21; result = -13.1%
SMILES = CCOc1cc(CC(=O)N[C@@H](CC(C)C)c2ccccc2N2CCCCC2)ccc1C(=O)O; result = -43.5%
SMILES = CCCCN1CCCC1CNC(=O)c1cc(C#N)c2ccccc2c1OC (stereo not shown); result = -32.9%
SMILES = CN1CCN(CCCN2c3ccccc3Sc3ccc(C(F)(F)F)cc32)CC1; result = -17.8%
SMILES = O=c1[nH]cnc2c1ncn2[C@H]1CC[C@@H](CO)O1; result = -31.9%
SMILES = CCc1ccc(CCOc2ccc(CC3SC(=O)NC3=O)cc2)nc1 (stereo not shown); result = 9.8%

Block 4
Structure (SMILES): CC(C)C(=O)N1CCN(c2nc(OC[C@@H]3CCCN3C)nc3c2CCN(c2cccc4cccc(Cl)c24)C3)C[C@@H]1CC#N
Observed: binding
Mode: competitor
Method: NanoBRET
Cells: HEK293
Measurement: normalized BRET
KRAS G12D: GTPase KRas (KRAS, Homo sapiens, UniProt P01116, G12D)
target = GTPase KRas (KRAS, Homo sapiens, UniProt P01116, Q61R); conditions = 3.7 µM; result = 113% and 94.3% and 108%
target = KRAS G12D; conditions = 1.24 µM; result = 104% and 89.1% and 97.7%
target = KRAS G12D; conditions = 45.7 nM; result = 94.6% and 86.4% and 95.1%
target = KRAS G12D; conditions = 11.1 µM; result = 108% and 127% and 117%

Some of these lines once more (block 2):
Structure (SMILES) = COc1cc2ncnc(Nc3ccc(Oc4ccccc4)cc3)c2cc1OC; result = 102%
Structure (SMILES) = Nc1[nH]nc2nc3ccccc3nc12; result = 89.3%
